Published values pooled from the literature.
Every numbered part comes from another study and shows a few of its results, in no order.
Chain of UniProt Q8TDX7 (whole entry, looked up): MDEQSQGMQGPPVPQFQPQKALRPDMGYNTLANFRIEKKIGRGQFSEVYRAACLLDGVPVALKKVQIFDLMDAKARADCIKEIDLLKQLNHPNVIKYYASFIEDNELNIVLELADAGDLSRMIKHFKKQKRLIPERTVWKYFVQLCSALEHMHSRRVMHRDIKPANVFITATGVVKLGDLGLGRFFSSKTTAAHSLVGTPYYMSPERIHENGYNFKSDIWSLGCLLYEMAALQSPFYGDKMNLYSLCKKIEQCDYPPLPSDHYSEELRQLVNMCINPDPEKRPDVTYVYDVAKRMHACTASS
Chain of UniProt Q9H0K1 (whole entry, looked up): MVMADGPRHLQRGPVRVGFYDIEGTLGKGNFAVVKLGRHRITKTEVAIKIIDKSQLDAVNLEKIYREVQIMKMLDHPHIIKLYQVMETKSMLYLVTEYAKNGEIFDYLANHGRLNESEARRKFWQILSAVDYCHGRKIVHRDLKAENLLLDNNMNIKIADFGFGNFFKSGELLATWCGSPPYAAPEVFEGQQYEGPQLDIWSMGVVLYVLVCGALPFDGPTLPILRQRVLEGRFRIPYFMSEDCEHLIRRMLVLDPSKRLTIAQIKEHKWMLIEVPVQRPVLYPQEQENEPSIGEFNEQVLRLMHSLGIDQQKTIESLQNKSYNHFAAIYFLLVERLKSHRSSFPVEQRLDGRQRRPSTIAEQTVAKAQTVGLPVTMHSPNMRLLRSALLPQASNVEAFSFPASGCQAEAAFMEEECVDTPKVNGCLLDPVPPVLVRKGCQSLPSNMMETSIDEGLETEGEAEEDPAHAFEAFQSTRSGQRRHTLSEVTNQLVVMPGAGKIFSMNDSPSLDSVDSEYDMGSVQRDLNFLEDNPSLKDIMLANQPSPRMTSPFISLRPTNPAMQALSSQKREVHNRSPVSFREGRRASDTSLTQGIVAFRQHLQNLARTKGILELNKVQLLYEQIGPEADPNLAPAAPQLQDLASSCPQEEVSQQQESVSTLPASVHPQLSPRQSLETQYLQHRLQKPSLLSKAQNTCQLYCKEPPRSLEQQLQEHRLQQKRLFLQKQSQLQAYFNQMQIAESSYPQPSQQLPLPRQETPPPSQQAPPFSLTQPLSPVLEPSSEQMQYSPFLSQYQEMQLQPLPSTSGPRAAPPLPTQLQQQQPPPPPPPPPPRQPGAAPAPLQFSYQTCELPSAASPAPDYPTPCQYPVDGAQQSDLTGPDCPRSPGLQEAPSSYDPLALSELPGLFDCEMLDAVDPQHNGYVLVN
Chain of UniProt P10721 (whole entry, looked up): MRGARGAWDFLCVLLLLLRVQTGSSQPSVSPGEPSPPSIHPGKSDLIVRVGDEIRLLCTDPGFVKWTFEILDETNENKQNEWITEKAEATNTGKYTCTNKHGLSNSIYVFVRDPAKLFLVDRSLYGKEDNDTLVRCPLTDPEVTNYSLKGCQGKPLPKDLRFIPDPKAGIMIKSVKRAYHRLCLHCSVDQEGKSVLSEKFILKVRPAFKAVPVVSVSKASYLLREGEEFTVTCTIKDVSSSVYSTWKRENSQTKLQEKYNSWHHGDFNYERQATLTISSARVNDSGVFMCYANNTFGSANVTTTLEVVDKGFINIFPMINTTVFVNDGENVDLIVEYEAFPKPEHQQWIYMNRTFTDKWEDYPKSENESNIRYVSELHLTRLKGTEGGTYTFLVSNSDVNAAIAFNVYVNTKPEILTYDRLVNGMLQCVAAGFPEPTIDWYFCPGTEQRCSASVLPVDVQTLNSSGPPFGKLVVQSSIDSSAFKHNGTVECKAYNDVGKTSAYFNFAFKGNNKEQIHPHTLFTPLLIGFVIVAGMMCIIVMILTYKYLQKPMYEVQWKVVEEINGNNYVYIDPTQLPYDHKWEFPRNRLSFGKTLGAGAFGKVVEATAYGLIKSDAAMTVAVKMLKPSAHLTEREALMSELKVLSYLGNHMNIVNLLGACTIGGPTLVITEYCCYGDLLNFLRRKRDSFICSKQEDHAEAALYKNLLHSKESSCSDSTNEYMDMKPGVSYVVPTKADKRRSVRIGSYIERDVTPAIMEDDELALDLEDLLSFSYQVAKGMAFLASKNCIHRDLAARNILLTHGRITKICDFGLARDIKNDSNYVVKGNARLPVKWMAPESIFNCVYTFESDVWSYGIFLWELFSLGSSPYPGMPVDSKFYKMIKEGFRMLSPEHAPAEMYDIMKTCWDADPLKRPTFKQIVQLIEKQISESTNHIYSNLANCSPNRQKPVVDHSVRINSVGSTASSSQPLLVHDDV
Chain of UniProt P41743 (whole entry, looked up): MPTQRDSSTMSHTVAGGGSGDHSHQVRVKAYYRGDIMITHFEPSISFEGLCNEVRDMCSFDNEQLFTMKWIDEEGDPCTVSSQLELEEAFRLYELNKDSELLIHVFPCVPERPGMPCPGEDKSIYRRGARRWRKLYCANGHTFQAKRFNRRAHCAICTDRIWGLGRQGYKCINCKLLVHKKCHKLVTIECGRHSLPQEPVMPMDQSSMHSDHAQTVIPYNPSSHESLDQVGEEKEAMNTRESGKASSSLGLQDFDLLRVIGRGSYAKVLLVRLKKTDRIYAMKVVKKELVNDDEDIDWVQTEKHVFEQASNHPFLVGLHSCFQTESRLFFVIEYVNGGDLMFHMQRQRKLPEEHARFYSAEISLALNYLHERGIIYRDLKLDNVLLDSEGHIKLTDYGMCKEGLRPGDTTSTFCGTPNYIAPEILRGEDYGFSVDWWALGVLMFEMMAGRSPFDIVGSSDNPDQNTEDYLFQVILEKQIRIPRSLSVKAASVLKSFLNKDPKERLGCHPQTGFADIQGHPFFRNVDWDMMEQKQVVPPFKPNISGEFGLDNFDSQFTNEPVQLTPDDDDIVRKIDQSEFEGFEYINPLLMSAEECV
Chain of UniProt P57059 (whole entry, looked up): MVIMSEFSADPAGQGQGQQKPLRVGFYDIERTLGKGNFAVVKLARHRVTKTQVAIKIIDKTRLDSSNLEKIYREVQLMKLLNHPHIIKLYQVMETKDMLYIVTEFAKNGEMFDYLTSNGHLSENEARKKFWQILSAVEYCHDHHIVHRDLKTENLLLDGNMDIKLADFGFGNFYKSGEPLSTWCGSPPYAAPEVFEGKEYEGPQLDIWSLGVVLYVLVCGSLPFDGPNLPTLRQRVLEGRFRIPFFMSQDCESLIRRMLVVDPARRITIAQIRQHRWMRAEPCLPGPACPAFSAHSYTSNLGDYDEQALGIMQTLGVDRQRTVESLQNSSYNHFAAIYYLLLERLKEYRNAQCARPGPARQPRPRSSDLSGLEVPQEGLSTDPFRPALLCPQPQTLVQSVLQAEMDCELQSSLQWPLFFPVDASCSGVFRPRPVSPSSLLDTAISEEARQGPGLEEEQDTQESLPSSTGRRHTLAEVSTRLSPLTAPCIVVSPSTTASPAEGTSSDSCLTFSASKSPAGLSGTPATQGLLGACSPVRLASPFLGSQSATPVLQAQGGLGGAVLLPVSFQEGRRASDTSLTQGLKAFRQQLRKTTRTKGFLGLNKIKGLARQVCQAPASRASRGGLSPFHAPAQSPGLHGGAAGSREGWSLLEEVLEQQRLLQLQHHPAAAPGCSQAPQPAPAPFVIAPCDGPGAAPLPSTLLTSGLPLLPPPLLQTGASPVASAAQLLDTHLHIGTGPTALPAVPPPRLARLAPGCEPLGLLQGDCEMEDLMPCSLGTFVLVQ
Chain of UniProt P29320 (whole entry, looked up): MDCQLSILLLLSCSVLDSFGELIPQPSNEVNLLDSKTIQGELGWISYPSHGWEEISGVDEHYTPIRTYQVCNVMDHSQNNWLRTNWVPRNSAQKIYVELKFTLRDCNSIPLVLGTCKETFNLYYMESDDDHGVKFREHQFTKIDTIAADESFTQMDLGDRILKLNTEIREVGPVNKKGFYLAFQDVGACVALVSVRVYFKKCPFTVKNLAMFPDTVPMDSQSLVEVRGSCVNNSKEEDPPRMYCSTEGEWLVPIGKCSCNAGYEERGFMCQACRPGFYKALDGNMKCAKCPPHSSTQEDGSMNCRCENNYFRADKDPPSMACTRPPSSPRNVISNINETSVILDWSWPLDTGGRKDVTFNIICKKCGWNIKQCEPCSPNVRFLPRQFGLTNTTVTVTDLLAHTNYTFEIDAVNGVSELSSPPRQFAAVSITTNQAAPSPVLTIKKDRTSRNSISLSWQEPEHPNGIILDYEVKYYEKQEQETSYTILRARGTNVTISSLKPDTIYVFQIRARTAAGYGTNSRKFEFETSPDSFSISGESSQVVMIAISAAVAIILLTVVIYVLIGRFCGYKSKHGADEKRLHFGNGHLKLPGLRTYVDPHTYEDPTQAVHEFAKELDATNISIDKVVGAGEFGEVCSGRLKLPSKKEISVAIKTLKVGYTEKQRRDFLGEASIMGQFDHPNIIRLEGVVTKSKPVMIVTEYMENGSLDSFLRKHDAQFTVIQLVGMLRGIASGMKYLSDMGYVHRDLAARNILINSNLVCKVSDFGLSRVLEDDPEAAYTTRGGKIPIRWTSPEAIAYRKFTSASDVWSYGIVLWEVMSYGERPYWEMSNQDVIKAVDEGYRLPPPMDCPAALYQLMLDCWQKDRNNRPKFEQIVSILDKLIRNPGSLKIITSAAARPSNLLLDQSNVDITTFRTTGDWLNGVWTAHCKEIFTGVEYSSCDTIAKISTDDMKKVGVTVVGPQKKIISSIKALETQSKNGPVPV
Chain of UniProt Q9Y243 (whole entry, looked up): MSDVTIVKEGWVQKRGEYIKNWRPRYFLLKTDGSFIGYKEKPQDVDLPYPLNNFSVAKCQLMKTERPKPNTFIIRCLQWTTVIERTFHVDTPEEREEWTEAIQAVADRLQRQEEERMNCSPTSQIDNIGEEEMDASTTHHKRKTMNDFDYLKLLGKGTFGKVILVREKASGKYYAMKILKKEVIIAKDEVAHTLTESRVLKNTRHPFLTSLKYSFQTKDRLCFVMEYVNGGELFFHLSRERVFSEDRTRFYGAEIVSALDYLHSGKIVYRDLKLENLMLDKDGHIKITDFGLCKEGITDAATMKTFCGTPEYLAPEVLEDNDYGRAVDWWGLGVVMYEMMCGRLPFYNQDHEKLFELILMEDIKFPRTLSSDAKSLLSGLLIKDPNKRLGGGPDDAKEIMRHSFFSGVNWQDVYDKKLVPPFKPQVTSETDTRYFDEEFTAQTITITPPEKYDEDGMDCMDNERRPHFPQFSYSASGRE

Series 1 — host: human; medium: microsomes or S9; tested at: 2 µM; time: 0.5 h
`COc1cc(OC)c(C(=O)Nc2sc(C(C)C)cc2C(=O)OC(C)C)cc1OC` gave a remaining compound of 83.1%.
With `Cc1ccc(S(=O)(=O)CCc2noc(C(=O)NCCc3ccc(S(N)(=O)=O)cc3)n2)cc1` the remaining compound was 66.9%.
`Cc1cc(C)cc(OC(C)C(=O)NCCN(C)C)c1` (stereo not drawn) gave a remaining compound of 92.9%.
For `COc1ccc(OC)c(Nc2nc(CC(=O)NCCc3c[nH]c4ccccc34)cs2)c1`, the remaining compound was 1.26%.
For `COCCOc1cc(=O)n2c(c1C(=O)N1CCC(Cc3ccccc3)CC1)CCOCC2`, the remaining compound was 46.7%.
The remaining compound of `COC(=O)c1csc(COc2ccc(F)c(F)c2)n1` is reported as 50.3%.
The remaining compound of `COc1cc(Br)c(S(=O)(=O)NC2CCN(C(=O)c3ccccc3)CC2)cc1OC` is reported as 89.2%.
`Nc1nc(N2CCN(C3CCCCC3)CC2)nc2ccccc12` gave a remaining compound of 19.9%.

Series 2 — tested at: 1 µM
SMILES: O=C(NS(=O)(=O)c1ccc(NCC2CCOCC2)c([N+](=O)[O-])c1)c1ccc(N2CCN(Cc3ccc(C(F)(F)F)cc3-c3ccc(Cl)cc3)CC2)cc1Oc1cnc2[nH]ccc2c1
cGMP-dependent protein kinase 2 (PRKG2, Homo sapiens, UniProt Q13237); cell-free assay, competition with immobilised ligand — remaining binding: 100%.
Serine/threonine-protein kinase SIK1 (SIK1, Homo sapiens, UniProt P57059); competition binding — remaining binding: 90%.
Serine/threonine-protein kinase ICK (CILK1, Homo sapiens, UniProt Q9UPZ9); cell-free assay, competition with immobilised ligand — remaining binding: 84%.
It gave 100% for remaining binding (Phosphatidylinositol 3-kinase catalytic subunit type 3 (PIK3C3, Homo sapiens, UniProt Q8NEB9); cell-free assay, competition with immobilised ligand).
The remaining binding was 97% (Serine/threonine-protein kinase Nek7 (NEK7, Homo sapiens, UniProt Q8TDX7); cell-free assay, competition with immobilised ligand).
Cyclin-dependent kinase 2 (CDK2, Homo sapiens, UniProt P24941); cell-free assay, competition with immobilised ligand — remaining binding: 100%.

Series 3 — tested at: 1 µM
Compound: CN1CCN(C(=O)c2ccc(NC(=O)Nc3ccc(N(C)c4ccnc(Nc5ccc(CS(C)(=O)=O)cc5)n4)cc3)cc2)CC1
The remaining binding was 56% (Serine/threonine-protein kinase SIK2 (SIK2, Homo sapiens, UniProt Q9H0K1); competitive binding panel; baseline: vehicle).
For RAC-gamma serine/threonine-protein kinase (AKT3, Homo sapiens, UniProt Q9Y243); competitive binding panel; baseline: vehicle: remaining binding read 100%.
The remaining binding was 35% (Mast/stem cell growth factor receptor Kit (KIT, Homo sapiens, UniProt P10721); competitive binding scan; autoinhibited form).
Epidermal growth factor receptor (EGFR, Homo sapiens, UniProt P00533, del746-750); competitive binding panel; baseline: vehicle — remaining binding: 87%.
It gave 79% for remaining binding (Ephrin type-A receptor 3 (EPHA3, Homo sapiens, UniProt P29320); competitive binding panel; baseline: vehicle).
For Protein kinase C iota type (PRKCI, Homo sapiens, UniProt P41743); competitive binding panel; baseline: vehicle: remaining binding read 74%.
It gave 57% for remaining binding (Tyrosine-protein kinase Fgr (FGR, Homo sapiens, UniProt P09769); competitive binding panel; baseline: vehicle).

Series 4 — observed: enzyme activity; action: inhibitor; tested at: 0.5 µM; baseline: control
Target: Cyclin-dependent kinase 2, with cyclin A (CDK2, Homo sapiens, UniProt P24941)
For `Nc1ccc2ncnc(NCCc3ccc(Oc4ccccc4)cc3)c2c1`, the remaining activity was 95.8%.
For `O=S(=O)(c1cccc2cnccc12)N1CCCNCC1`, the remaining activity was 93.4%.
The remaining activity of `Cc1cccc(-c2[nH]c(C(C)(C)C)nc2-c2ccc3c(c2)OCO3)n1` is reported as 117%.
The remaining activity of `Cn1sc(=O)n(Cc2ccccc2)c1=O` is reported as 100%.
For `Oc1ccc(-c2nc(-c3ccncc3)c(-c3ccc(F)cc3)[nH]2)cc1`, the remaining activity was 101%.
`OCC(O)CCON=C1C(c2c(O)[nH]c3ccccc23)=Nc2ccccc21` (stereo not drawn) gave a remaining activity of 15.5%.
With `N#CC(C#N)=C(N)/C(C#N)=C/c1ccc(O)cc1` the remaining activity was 97.9%.
For `COc1cc2nccc(Oc3ccc(NC(=S)NC(=O)c4ccccc4C)cc3)c2cc1OC`, the remaining activity was 94.2%.
The remaining activity of `Nc1[nH]nc2nc3ccccc3nc12` is reported as 86.2%.
The remaining activity of `CCOC(=O)c1c(C)[nH]c(/C=C2\C(=O)Nc3ccccc32)c1C` is reported as 94.5%.
For `O=C1NC(=O)C(c2cn(CCCn3ccnc3)c3ccccc23)=C1Nc1ccccc1`, the remaining activity was 83.4%.
With `NCCNc1ncc(C(N)=O)c(Nc2cccc(C(F)(F)F)c2)n1` the remaining activity was 97.6%.
`O=C(CCCc1ccc(-c2ccccc2F)cc1)Nc1ccc(O)cc1` gave a remaining activity of 92.7%.
`CN(C)c1ccc(C=C2C(=O)Nc3ccccc32)cc1` has a remaining activity of 102%.
`O=C(Nc1cccc(Nc2cc(Nc3cccc(C(F)(F)F)c3)ncn2)c1)C1CC1` has a remaining activity of 99.5%.
